Literature values that unrelated publications cite.
Protocols differ between the studies behind these lines.
Organism: Mycobacterium tuberculosis

CC(C)=CCC/C(C)=C/CNCCOC1C2CC3CC(C2)CC1C3 (centres unmarked)
MIC (H37Rv): 0.035 µg/mL

O=C(/C=C/c1cccs1)N1CCN(Cc2ccc3c(c2)OCO3)CC1
MIC (bacterial growth; H37Rv): 0.3 µM

c1ccc(-c2cc(N3CCCCC3)nc3nc(N4CCCCC4)ccc23)cc1
MIC (H37Rv): 6.25 µg/mL

Cc1ccc2nc(C)c(C(=O)NCc3cc(F)cc(F)c3)n2c1
MIC (alamar blue fluorescence; H37Rv): 0.08 µM

FC(F)(F)c1cc(-n2cc(CN3CCCN(c4noc5ccccc45)CC3)nn2)ccc1Br
MIC (concentration not given): 24 µM

O=C(NN1C(=O)c2c(F)c(F)c(F)c(F)c2C1=O)c1ccncc1
MIC (H37Rv): 1.15 µg/mL

Cc1cn2c(C(=O)NCc3ccc(C(F)(F)F)cc3)c(C)nc2s1
MIC: 0.061 µM

CO[C@H]1[C@@H](O)[C@H](n2ccc(=O)[nH]c2=O)O[C@@H]1[C@@H](O[C@H]1OC(C(=O)N[C@H]2N=C(c3ccccc3)c3ccccc3NC2=O)=C[C@H](O)[C@@H]1O)C(N)=O
MIC (growth; H37Rv): 2.5 µg/mL

O=C(O)c1c(=O)c2cc([N+](=O)[O-])c(N3CCC4(CC3)OCCO4)nc2n2c1sc1ccccc12
MIC (multidrug-resistant): 0.04 µM

O=C(NN1C(=O)c2ccccc2C1=O)c1ccncc1
MIC: 5 µg/mL

Cc1cc(C)c2cc(C(=O)NC3CCCCC3)[nH]c2c1
MIC (phenotypic screening): 0.93 µM

For quick reference, copied from above:
CO[C@H]1[C@@H](O)[C@H](n2ccc(=O)[nH]c2=O)O[C@@H]1[C@@H](O[C@H]1OC(C(=O)N[C@H]2N=C(c3ccccc3)c3ccccc3NC2=O)=C[C@H](O)[C@@H]1O)C(N)=O
MIC (growth; H37Rv): 2.5 µg/mL

O=C(O)c1c(=O)c2cc([N+](=O)[O-])c(N3CCC4(CC3)OCCO4)nc2n2c1sc1ccccc12
MIC (multidrug-resistant): 0.04 µM
